Experimental data of several laboratories.
Compare with care: the assays were run in different laboratories.

Molecule	tested on	assay	system	setting	how to read	quantity	result
gentamicin sulfate	Acinetobacter baumannii		ATCC 19606, susceptible	18 h, 37 °C, dark		MIC	0.5 µM
human delta-aminolevulinic acid dehydratase		co-immunoprecipitation	human plasma	unit not given, with: Band 3 peptide 1-56 bait	baseline: negative control	co-IP enrichment	0
colistin	Acinetobacter baumannii	broth microdilution	clinical isolate RKI-No_30/16			MIC	1 µg/mL
colistin	Acinetobacter baumannii	broth microdilution	ATCC 19606			MIC	1 µg/mL
colistin	Acinetobacter baumannii	broth microdilution	ATCC 19606	susceptible reference strain		MIC	< 0.125 µg/mL
tigecycline	Acinetobacter baumannii	broth microdilution	ATCC 17978			MIC	0.63 µM
colistin	Acinetobacter baumannii		clinical strain 1E3			MIC	0.5 µg/mL
colistin sulfate	Acinetobacter baumannii		DSM 30007	compound alone		MIC	0.125 µM
polymyxin B	Acinetobacter baumannii	broth microdilution	pandrug-resistant colistin-resistant clinical isolate, Mueller-Hinton broth	24 h, 37 °C		MIC	> 63 µg/mL
GLLQWITQV	Jurkat T cells expressing 1G4 TCR	NFAT-eGFP reporter, flow cytometry	peptide	concentration not given, HLA-A*02:01 NY-ESO system		reporter activation	82.6%
GSGAGKETEC	human MAGI1-2/6 PDZ construct (MBP fusion)	automated holdup	peptide, purified PDZ protein	concentration not given, unit not given	baseline: biotin control resin, higher = stronger binding	binding intensity	-0.224
colistin hydrochloride	Acinetobacter baumannii	broth microdilution	ATCC 19606			MIC	0.06 µg/mL
azithromycin	Acinetobacter baumannii	broth microdilution	ATCC 17978			MIC	2.5 µM
VMRLQSETSV	human MAGI1-2/6 PDZ construct (MBP fusion)	automated holdup	peptide, purified PDZ protein	concentration not given, unit not given	baseline: biotin control resin, higher = stronger binding	binding intensity	0.247
